Measurements collected from several papers.
Compare with care: the assays were run in different laboratories. “And” joins repeats or separate records; there may be more than shown. ± gives the spread as reported.

N#Cc1ccc2c(c1)[C@H]1CCCN(C(=O)c3ccc4[nH]cnc4c3)[C@H]1C2
change in fasting glucose (human, plasma; 40 mg, day 15, 360 h; reference: placebo and baseline): -1.1%

C[C@H]1C[C@H]2CSC(N)=N[C@@]2(c2nc(NC(=O)c3ccc(OC(F)F)cn3)cs2)CO1
percent change from baseline (measured: Aβx-40; healthy adults, plasma; 50 mg once daily, day 2; reference: placebo): -58.5%

C[C@@H](O)CCOC(=O)C[C@@H](C)O
metabolite level (measured: C8:1-OH/C6:1-DC acylcarnitine; human, plasma; 60 min, log2-transformed values): -5.31 ± 0.75 µmol/L

COc1ccc(F)cc1C(=O)NCc1ccc(-c2nn([C@@H](C)C(F)(F)F)c(N)c2C(N)=O)cc1
tumour regression (mouse TMD8 BTK C481S xenograft; oral, 30 mg/kg twice daily): -48%

COc1cc(-c2ccccc2)ncc1C(=O)Nc1ccc2c(=O)[nH]c(-c3ccc(C(C)(C)O)cc3)nc2c1
normalized enrichment score (RNA-seq GSEA, measured: HALLMARK_MYC_TARGETS_V1; organoids, small intestinal, Apc Q1405X, mouse; dose not given, knockout organoids; reference: DMSO, direction not given): -2.22

CC[C@@H]1[C@H](F)C(=O)N[C@@H]1COc1nccc2cc(C(N)=O)c(OC)cc12
inhibition (ATP-site probe binding, ActivX profiling, measured: TAO1, TAO3; THP-1 cell lysate; 0.04 mM, Lys2 site): -1.6%

COc1cc2cc(-c3ccc(CC(=O)Nc4cc(C(C)(C)C(F)(F)F)no4)cn3)cnc2cc1OC
progressive disease as best response (human RET-altered advanced solid tumours; dose not given, phase I total, RECIST 1.1): 18%

COC(=O)CCc1ccc(OCC(O)CNC(C)C)cc1 (stereo not shown)
heart rate change (healthy male humans; dose not given, 5 min, added: saline; reference: baseline): 2.3 beats/min

C[C@]12CC[C@@H]3c4ccc(O)cc4C[C@@H](CCCCCCCCC[S+]([O-])CCCC(F)(F)C(F)(F)F)[C@H]3[C@@H]1CC[C@@H]2O (stereo partly shown)
tumour volume (female nude mouse LCC2 xenograft; 2.0 mg/kg, day 11, tamoxifen-resistant): 79.7 mm3 and 69 mm3 and 79.5 mm3 and 77.7 mm3 and 137 mm3 and 60.4 mm3 and 82 mm3

COc1ccc(F)cc1C(=O)NCc1ccc(-c2nn([C@@H](C)C(F)(F)F)c(N)c2C(N)=O)cc1
patients remaining on treatment (CLL/SLL patients; dose not given): 88%

OC(CCN1CCCCC1)(c1ccccc1)C1CC2C=CC1C2 (stereo not shown)
EEG theta power, O2 Pz (resting-state EEG; healthy elderly humans; oral, 2 mg, eyes closed, LS mean): 8.9 µV²

O=C(OC(C(F)(F)F)C(F)(F)F)N1CCN(Cc2cccc(Oc3ccccc3)c2)CC1
volume of distribution (PET blocking study; rhesus monkey, brain thalamus; intravenous, 0.03 mg/kg, compound pretreatment, added: [18F]T-401 tracer): 4.1 mL/cm3

N#CC[C@H](C1CCCC1)n1cc(-c2ncnc3[nH]ccc23)cn1
peak inhibition range (phosphoflow cytometry, measured: pSTAT5; patient plasma; concentration not given): 10 to 74.3%

CC(=O)NCC(=O)NCC(=O)N[C@H](C(=O)N[C@@H](Cc1ccc(O)cc1)C(=O)N[C@@H](CO)C(=O)N[C@H]1CSSC[C@@H](C(=O)N[C@@H](CCCNC(=N)N)C(=O)N2CCC[C@H]2C(=O)N[C@@H](CCC(N)=O)C(=O)N[C@@H](CCCNC(=N)N)C(=O)NCC(=O)NCCC(=O)N[C@@H](CCCCNC(=O)CN(CC(=O)NCCCC[C@H](NC(=O)CCNC(=O)CNC(=O)[C@H](CCCNC(=N)N)NC(=O)[C@H](CCC(N)=O)NC(=O)[C@@H]2CCCN2C(=O)[C@H](CCCNC(=N)N)NC(=O)[C@@H]2CSSC[C@H](NC(=O)[C@H](CO)NC(=O)[C@H](Cc3ccc(O)cc3)NC(=O)[C@@H](NC(=O)CNC(=O)CNC(C)=O)[C@@H](C)O)C(=O)N[C@@H](Cc3c[nH]cn3)C(=O)N[C@@H](Cc3ccccc3)C(=O)NCC(=O)N[C@@H](C)C(=O)N[C@@H](CC(C)C)C(=O)N[C@@H]([C@@H](C)O)C(=O)N[C@@H](Cc3c[nH]c4ccccc34)C(=O)N[C@@H](C(C)C)C(=O)N2)C(N)=O)C(=O)CCN)C(N)=O)NC(=O)[C@H](C(C)C)NC(=O)[C@H](Cc2c[nH]c3ccccc23)NC(=O)[C@H]([C@@H](C)O)NC(=O)[C@H](CC(C)C)NC(=O)[C@H](C)NC(=O)CNC(=O)[C@H](Cc2ccccc2)NC(=O)[C@H](Cc2c[nH]cn2)NC1=O)[C@@H](C)O
reticulocytes (healthy BALB/c mice; subcutaneous, 0.16 mg/kg, 8 d, single dose): 5.8%

O=C(NO)c1ccc(CN(c2cnccn2)c2cnccn2)cc1
progression-free survival (human; 800 mg BID): 9 months

CC(C)[C@H](C(=O)Nc1ccc(C(=O)NO)cc1)c1ccccc1
speech discrimination score, left ear (human; 1.6 2 weeks after dosing; direction not given): 100%

CSCCNc1nc(SCCC(F)(F)F)nc2c1ncn2[C@@H]1O[C@H](COP(=O)(O)OP(=O)(O)C(Cl)(Cl)P(=O)(O)O)[C@@H](O)[C@H]1O
patients with IPA above 90% (light transmittance aggregometry; human patients, platelet-rich plasma; dose not given, 15 min, added: ADP 20 µM; reference: patients): 2.5%

C1=C/COCc2cc(ccc2OCCN2CCCC2)Nc2nccc(n2)-c2cccc(c2)COC/1
reticulocytes (BALB/c mice rhEPO-induced polycythemia; 120 mg/kg): 10.9% and 14.2% and 13.1% and 13.3% and 11.3% and 14.1%

CN(C(=O)n1cnc(-c2ccc[n+]([O-])c2)c1)C1CCCCC1
AUC(0-t) (measured: PEA; human, plasma; 20 mg single dose): 378 ng·h/mL

Cc1cc(C)c(CNC(=O)c2cc(Cl)c3c(c2C)O[C@@](C)([C@H]2CC[C@H](N(C)C)CC2)O3)c(=O)[nH]1
partial response rate (human relapsed/refractory NHL; dose not given, measurable baseline disease): 20%

COc1ncnn2ccc(-c3cnc4nc(C)n(Cc5nnc([C@@H](C)F)o5)c4c3)c12
patients not evaluable for response (Homo sapiens, relapsed or refractory AML or MDS; dose not given, splicing factor mutation-positive): 0%

c1ccc(-c2n[nH]cc2-c2ccnc3ccccc23)nc1
log2 fold change (kinase binding, competitor, MIB/MS competition, measured: SSK2; Candida albicans cell lysate; 100 nM; reference: DMSO): 0.705

Cc1cc(-c2nnc(N)nc2-c2ccc(F)cc2)cc(Cl)n1
GSVA score change (NanoString, measured: IFNg.Fluidigm.Merck.IO signature; human mCRPC, peripheral blood; dose not given, 2 or 4 weeks; reference: baseline, direction not given): 0.152

NC(=O)c1cnc2[nH]ccc2c1N[C@@H]1[C@@H]2CC3C[C@H]1C[C@@](O)(C3)C2
percent change (regulatory T cells, flow cytometry; Caucasian humans, peripheral blood; 20 mg single dose; reference: baseline): -0.42%

CCc1c(C)nc(-c2ccc(Cl)s2)nc1Nc1ccc(CC(=O)O)cc1
PDE4B expression (C57BL/6J mouse, high-fat diet MASH model, liver; intraperitoneal, 0.3 mg/kg daily, 60% fat diet for 12 weeks, dosed final four weeks; reference: untreated): decreased

COc1ccc(-c2cncc(N[C@@H](C)c3cccc(NC(=O)c4cncc(C)c4)c3)n2)cc1OC
fold change (measured: rno-miR-138-5p; rat SU5416/hypoxia model, lung; dose not given; reference: SU5416/hypoxia vehicle): 0.758

N=C(N)NCCC[C@@H](NC(=O)CCOCCOCCNC(=O)[C@H](CCCCNC(=O)CC[C@H](NC(=O)c1ccc(NCc2cnc3nc(N)[nH]c(=O)c3n2)cc1)C(=O)O)NC(=O)CO/N=C/[C@H](F)[C@@H](O)[C@H](O)[C@H](O)CO)C(=O)NCC(=O)N[C@H](CC(=O)O)C(N)=O [fluorine-18 labelled]
tumour uptake (female nude mice, MDA-MB-231 xenograft, tumour; intravenous, 45 min): 3.3 ± 0.79 %ID/g

N#Cc1ccc2c(c1)[C@H]1CCCN(C(=O)c3ccc4[nH]cnc4c3)[C@H]1C2
change from baseline (measured: 1,5-anhydroglucitol; human; 240 mg once daily, day 28, adjusted mean): -0.58 mg/L

COc1cc(N2CCC(N3CCN(C)CC3)CC2)ccc1Nc1ncc(Cl)c(Nc2ccccc2P(C)(C)=O)n1
tumour volume (nude mice, NCI-H3122 xenograft; intraperitoneal, 10 mg/kg every other day, day 3): 102 mm3 and 43.9 mm3 and 39.9 mm3 and 91.9 mm3 and 41.9 mm3

O=C(COc1ccc(Cl)cc1)NC12CC(c3nnc([C@H]4C[C@@H](OC(F)(F)F)C4)o3)(C1)C2
CHAC1 mRNA change (healthy human, PBMC; oral, 15 mg single dose, day 2, 24 h post-dose, median, added: sodium arsenite ex vivo; reference: baseline): 6.44%

O=C(O)CNC(=O)Cc1ccccc1
sarcomere length (ventricular cardiomyocytes, C57BL/6 mouse; dose not given, 0.764 s): 1.72 µm

CN(C)C(=O)Oc1cccc([N+](C)(C)C)c1
train-of-four ratio (neuromuscular block reversal; rat; dose not given, 18 (unit not given), added: cisatracurium; reference: T1 twitch): 98

C=CCn1c(=O)c2cnc(Nc3ccc(N4CCN(C)CC4)cc3)nc2n1-c1ccc2c(n1)[C@@](O)(CC)CC2
tumour volume difference (CB17 SCID mouse, 22Rv1 xenograft; oral, 80 mg/kg, 5 d on 2 d off ×3, day 19; reference: vehicle): 1030 ± 72 mm3

CC(C)NCC(O)c1ccc(O)c(O)c1 (stereo not shown)
sarcomere length (ventricular cardiomyocytes, C57BL/6 mouse; dose not given, 0.672 s): 1.72 µm

C[C@H]1O[C@@H](O[C@H]2CC[C@@]3(C)[C@@H](CC[C@]4(C)[C@@H]3C=C[C@]35OC[C@@]6(CCC(C)(C)C[C@H]63)[C@@H](O)C[C@]54C)[C@]2(C)CO)[C@H](O)[C@@H](O[C@@H]2O[C@H](CO)[C@@H](O)[C@H](O)[C@H]2O)[C@H]1O
total cholesterol (pair-fed control mice, no ethanol, plasma; oral, 15 mg/kg/day): 1.08 mM and 1.43 mM and 1.4 mM and 1.25 mM and 1.39 mM

N#Cc1ccc2c(-c3ccncc3)c(-c3ccc(F)cc3)nn2c1
log2 fold change (kinase binding, competitor, MIB/MS competition, measured: RCK2; Candida albicans cell lysate; 1 µM; reference: DMSO): -0.0131

Cc1ccc([C@@H]2O[C@H](CO)[C@@H](O)[C@H](O)[C@H]2O)cc1Cc1ccc(-c2ccc(F)cc2)s1
change, mean 24 h, plasma glucose (Japanese type 2 diabetes patients; 200 mg, day 1; reference: day 0): -30 mg/dL

Some of these lines once more:
O=C(O)CNC(=O)Cc1ccccc1
sarcomere length (ventricular cardiomyocytes, C57BL/6 mouse; dose not given, 0.764 s): 1.72 µm

COc1ccc(F)cc1C(=O)NCc1ccc(-c2nn([C@@H](C)C(F)(F)F)c(N)c2C(N)=O)cc1
tumour regression (mouse TMD8 BTK C481S xenograft; oral, 30 mg/kg twice daily): -48%

CC[C@@H]1[C@H](F)C(=O)N[C@@H]1COc1nccc2cc(C(N)=O)c(OC)cc12
inhibition (ATP-site probe binding, ActivX profiling, measured: TAO1, TAO3; THP-1 cell lysate; 0.04 mM, Lys2 site): -1.6%

C[C@]12CC[C@@H]3c4ccc(O)cc4C[C@@H](CCCCCCCCC[S+]([O-])CCCC(F)(F)C(F)(F)F)[C@H]3[C@@H]1CC[C@@H]2O (stereo partly shown)
tumour volume (female nude mouse LCC2 xenograft; 2.0 mg/kg, day 11, tamoxifen-resistant): 79.7 mm3 and 69 mm3 and 79.5 mm3 and 77.7 mm3 and 137 mm3 and 60.4 mm3 and 82 mm3

CN(C)C(=O)Oc1cccc([N+](C)(C)C)c1
train-of-four ratio (neuromuscular block reversal; rat; dose not given, 18 (unit not given), added: cisatracurium; reference: T1 twitch): 98
